Results gathered from unrelated publications.
Parts stem from different laboratories: compare values within a part only.

Study 1 — technique: RNA Bind-n-Seq; molecule type: RNA; matrix: in vitro; tested at: 200 nM; setting: whole 134-nt RNA, ends assumed; with: 150 mM LiCl; baseline: input library; direction: higher = stronger binding; measurement: log2 enrichment; library: 7-deaza-guanosine replaces G
Target: Ras GTPase-activating protein-binding protein 1, full length (G3BP1, Homo sapiens, UniProt Q13283)
Chain of UniProt Q13283 (whole entry, looked up): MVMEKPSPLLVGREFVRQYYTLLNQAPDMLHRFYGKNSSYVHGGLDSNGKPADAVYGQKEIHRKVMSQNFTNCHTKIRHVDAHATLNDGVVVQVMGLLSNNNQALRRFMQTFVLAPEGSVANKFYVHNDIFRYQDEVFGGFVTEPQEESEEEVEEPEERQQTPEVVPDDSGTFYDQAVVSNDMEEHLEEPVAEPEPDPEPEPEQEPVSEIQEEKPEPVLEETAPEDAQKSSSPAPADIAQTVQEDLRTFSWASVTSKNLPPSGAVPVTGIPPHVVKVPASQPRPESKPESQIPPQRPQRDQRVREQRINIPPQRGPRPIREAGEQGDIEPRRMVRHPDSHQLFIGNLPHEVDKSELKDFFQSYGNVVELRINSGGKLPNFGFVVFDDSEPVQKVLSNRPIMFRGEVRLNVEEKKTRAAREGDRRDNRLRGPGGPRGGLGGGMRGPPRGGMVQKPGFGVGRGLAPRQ
Oligonucleotide = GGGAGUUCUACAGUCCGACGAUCUUGUGAUAGCCAAGUGGGACUACACCGCCCAGCAGGACCAGGAGCUGGACAUCAAGAAGAACGAGCGGCUGUGGUUGCUGGACGACUCCAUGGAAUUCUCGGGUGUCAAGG; value = -0.831
Oligonucleotide = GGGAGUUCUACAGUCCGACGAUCUUCGAAGAGGUUGUGUACCAGGCCAUGGGUGAGUGCCCGGGCCACCGAGGCCACGUGCCUCCACGAGGGGCUGCCUAUGCCCCACCCUGGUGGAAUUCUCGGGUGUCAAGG; value = -0.0138
Oligonucleotide = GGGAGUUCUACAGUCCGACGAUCUAGCCAAGAGUCGAAGCUAAACCAGAAGUUCAAUCUCAGCCACCUCGUGUGCGUGAACAACGACCUAGAGAACGACCUGGUUUUCCUCCUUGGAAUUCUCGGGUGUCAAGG; value = 0.00937
Oligonucleotide = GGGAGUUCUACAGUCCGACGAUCUGGGAGGUGGAUUUUGUUUAUUUUUUUAGCUCAUUUCCAGGGGUGGGAAUUUUUUUUUAAUAUGUGUCAUGAAUAAAGUUGUUUUUAAAAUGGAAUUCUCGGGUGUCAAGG; value = 0.143
Oligonucleotide = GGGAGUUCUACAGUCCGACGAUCCCUCAAGUCCUGUGCUACACAUCGUAUGUACCGAAUCGGGUUGGGUUGGUUGGAAAGUAUUAUGUUACGCCGUUCGGAUCUGCACUUCCAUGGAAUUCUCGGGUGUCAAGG; value = 0.29
Oligonucleotide = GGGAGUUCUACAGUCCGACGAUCACCAUGCAGGUGGGCAUCUUUGGGAAGUGGGGCAAGGGGGGGAUAGGGAGGGGGGUAACACUUUGGUAACAGGUGGUCCCAGGUCGUUUCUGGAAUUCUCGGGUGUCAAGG; value = -0.0625
Oligonucleotide = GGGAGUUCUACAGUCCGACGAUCAGUCCUGUGCUACACAUCGUAUGUACCGAAUCGGGGAAAAAGGGGUGGGGAAAGGGGAAAGUAUUAUGUUACGCCGUUCGGAUCUGCACUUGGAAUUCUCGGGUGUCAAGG; value = 0.105
Oligonucleotide = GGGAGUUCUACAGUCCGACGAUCUCAAGUCCUGUGCUACACAUCGUAUGUACCGAAUCGGCCCGGCCCGGGCCCGGGAAAGUAUUAUGUUACGCCGUUCGGAUCUGCACUUCCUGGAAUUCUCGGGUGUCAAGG; value = -0.405
Oligonucleotide = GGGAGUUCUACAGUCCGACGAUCUUGCAGCAACUGCUACCAGCCUCCCAGUCCACACAGCUGCCAUGCUCAAGUUCCCCUCAGGAGACCACCCAGUCUCGCCCUAUGCCGCCGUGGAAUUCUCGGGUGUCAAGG; value = 0.0403
Oligonucleotide = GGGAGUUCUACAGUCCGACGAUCUCAAGUCCUGUGCUACACAUCGUAUGUACCGAAUCGGUUUGGAAAGGAAAAAGGAAAGUAUUAUGUUACGCCGUUCGGAUCUGCACUUCCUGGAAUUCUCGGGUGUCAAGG; value = -0.377
Oligonucleotide = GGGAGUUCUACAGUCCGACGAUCUCCUGUGCUACACAUCGUAUGUACCGAAUCGGUUUUUUUGGUUUUUUUGGUUUUUUUGGAAAGUAUUAUGUUACGCCGUUCGGAUCUGCAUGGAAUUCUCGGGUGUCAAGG; value = 0.182

Study 2 — technique: universal PBM; molecule type: double-stranded DNA, one strand shown; matrix: in vitro; tested at: 600 nM; direction: higher = stronger binding; measurement: E-score
Target: Sal-like protein 4, full length isoform A (SALL4, Homo sapiens, UniProt Q9UJQ4, residues 1-1053)
Chain of UniProt Q9UJQ4 (whole entry, looked up): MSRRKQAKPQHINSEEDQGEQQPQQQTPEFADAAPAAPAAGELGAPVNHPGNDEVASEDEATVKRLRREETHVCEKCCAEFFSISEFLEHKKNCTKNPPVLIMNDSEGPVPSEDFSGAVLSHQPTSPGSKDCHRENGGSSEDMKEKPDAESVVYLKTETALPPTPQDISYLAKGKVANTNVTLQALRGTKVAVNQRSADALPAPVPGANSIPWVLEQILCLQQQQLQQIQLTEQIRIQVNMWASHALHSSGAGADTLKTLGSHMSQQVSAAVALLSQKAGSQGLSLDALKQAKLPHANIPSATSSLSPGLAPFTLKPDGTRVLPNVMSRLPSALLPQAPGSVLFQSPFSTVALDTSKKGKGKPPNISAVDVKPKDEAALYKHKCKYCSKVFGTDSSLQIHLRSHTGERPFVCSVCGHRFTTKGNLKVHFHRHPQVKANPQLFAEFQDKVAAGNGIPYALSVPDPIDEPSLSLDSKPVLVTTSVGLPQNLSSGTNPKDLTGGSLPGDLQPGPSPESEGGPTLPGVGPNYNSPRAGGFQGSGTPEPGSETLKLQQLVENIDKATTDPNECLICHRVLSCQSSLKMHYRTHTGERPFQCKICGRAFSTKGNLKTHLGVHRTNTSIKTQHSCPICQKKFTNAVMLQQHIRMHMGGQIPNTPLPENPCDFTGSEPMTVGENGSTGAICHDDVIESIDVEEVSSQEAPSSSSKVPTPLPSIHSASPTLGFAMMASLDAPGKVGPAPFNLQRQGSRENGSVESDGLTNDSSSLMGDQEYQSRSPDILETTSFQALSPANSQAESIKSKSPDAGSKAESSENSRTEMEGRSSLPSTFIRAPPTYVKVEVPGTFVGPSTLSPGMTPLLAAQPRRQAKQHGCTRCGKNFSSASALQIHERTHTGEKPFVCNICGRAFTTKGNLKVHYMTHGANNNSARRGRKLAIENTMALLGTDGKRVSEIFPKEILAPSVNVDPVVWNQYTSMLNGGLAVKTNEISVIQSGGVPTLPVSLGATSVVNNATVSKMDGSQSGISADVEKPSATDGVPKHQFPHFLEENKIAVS
Setting: 8-mer, flanks averaged, mean of replicates
Oligonucleotide = CGACCATA; value = 0.206
Oligonucleotide = GCATGGGA; value = -0.199
Oligonucleotide = GCGACTCA; value = -0.159
Oligonucleotide = CGCCATGC; value = -0.191
Oligonucleotide = AATAGAGT; value = 0.188
Oligonucleotide = CACTGTAA; value = 0.165
Oligonucleotide = TGTGAAAA; value = 0.256
Oligonucleotide = GAGCGTCA; value = -0.194
Oligonucleotide = CGCCTGGC; value = -0.447
Oligonucleotide = CTGTATCA; value = 0.0111
Oligonucleotide = AGGAAACG; value = 0.069
Oligonucleotide = CTAGGATC; value = -0.132
Oligonucleotide = GATAATTA; value = 0.349
Oligonucleotide = CATAGTCG; value = 0.0365
Oligonucleotide = CACTATCA; value = 0.0867
Oligonucleotide = CATGGCCA; value = -0.112
Oligonucleotide = ATGTTCTG; value = 0.0575
Oligonucleotide = CACGCATA; value = 0.00569
Oligonucleotide = ACGAAGAC; value = -0.235
Oligonucleotide = AACTCCTA; value = 0.0375
Oligonucleotide = CTGAGTCA; value = -0.0729
Oligonucleotide = AAATCTGG; value = 0.0476
Oligonucleotide = ACGATAAG; value = 0.123
Oligonucleotide = AATCAGAG; value = 0.0642
Oligonucleotide = GACAGACC; value = -0.249

Study 3 — technique: protein binding microarray; molecule type: double-stranded DNA, one strand shown; matrix: in vitro; tested at: not given; baseline: not given; direction: higher = stronger binding; measurement: E-score
Target: Histone acetyltransferase KAT6A, winged helix 2, GST fusion (KAT6A, Homo sapiens, UniProt Q92794, residues 85-181)
Setting: 8-mer, flanks averaged, mean of 2 arrays, mostly near background
Residues (chain): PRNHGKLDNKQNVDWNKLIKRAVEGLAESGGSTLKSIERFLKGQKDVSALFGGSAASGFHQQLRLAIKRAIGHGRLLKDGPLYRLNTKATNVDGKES
Oligonucleotide = TGACCCAA; value = 0.0237
Oligonucleotide = GCTCAAGA; value = -0.0773
Oligonucleotide = GTACATCA; value = -0.154
Oligonucleotide = CATACGAA; value = 0.0671
Oligonucleotide = CATATCCC; value = -0.0961
Oligonucleotide = GTATGAGA; value = -0.0725
Oligonucleotide = CCCCATAG; value = -0.0612
Oligonucleotide = ATCCGTAG; value = 0.0358
Oligonucleotide = ATATCTCG; value = 0.101
Oligonucleotide = ACGTGGAC; value = -0.0943
Oligonucleotide = ATGATTAC; value = 0.0473
Oligonucleotide = CGTTTGGA; value = -0.143
Oligonucleotide = CCCCTGCG; value = 0.22
Oligonucleotide = AAGACTAC; value = -0.279
Oligonucleotide = CCACCCGA; value = 0.224
Oligonucleotide = ACTGACAC; value = 0.038
Oligonucleotide = TACTGAGA; value = -0.186
Oligonucleotide = ACAAGGCG; value = 0.0339

Study 4 — technique: RNA Bind-n-Seq; molecule type: RNA; matrix: in vitro; tested at: 365 nM; baseline: no-protein control; direction: higher = stronger binding; measurement: RBNS enrichment (R)
Target: RNA binding protein fox-1 homolog 2, RRM domain, GST-SBP tag (RBFOX2, Homo sapiens, UniProt O43251-10, residues 100-194)
Setting: natural RNA segment, single round, ends assumed
Target sequence (chain): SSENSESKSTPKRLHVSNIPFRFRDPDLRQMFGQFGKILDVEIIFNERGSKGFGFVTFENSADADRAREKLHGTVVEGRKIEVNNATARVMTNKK
Oligonucleotide = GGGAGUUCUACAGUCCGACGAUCUGUUUGUGCGUCCUUCCUCCCAGCCGGUUCCCACCCUCCUAAGGGUUAUGCCAGUGGAUCUCACGCCUCUGUGCAUCACCUAUCUUUGGUUUGUGAAGGCAGCAGUUAAGUGGAAUUCUCGGGUGCCAA; value = 0.439
Oligonucleotide = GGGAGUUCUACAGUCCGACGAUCUGGAUUUGUAUUCUGUUCAGUUGUAGUCUACACUGCAGUCUUAUUCCUGGUUCAAACUACCUCUUUAAAUUGAUUUGUCUUGUGCUGGUCUGUUAAAUCCUGCCCUCCUUUGGAAUUCUCGGGUGCCAA; value = 0.598
Oligonucleotide = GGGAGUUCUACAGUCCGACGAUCCCAAUUUCAGAAAAUCAUUAAAAAGAAAAUAUUGAAAGGAAAAUGUUUUCUUUUUGAAGACUUCUGGCUUCAUUUUAUACUACUUUGGCAUGGACUGUAUUUAUUUUCAAUGGAAUUCUCGGGUGCCAA; value = 0.611
Oligonucleotide = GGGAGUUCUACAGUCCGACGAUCCCCUGUGUGGGACCACACUGUCAUCUCGCUGCUGGCAGAAAAGCCUGAUCCCAGGAGGCCCUGCAGUUCCCCCGACCCGCGGAUGGCAGUCUGGAAUAAAGCCCCCUAGUUGGAAUUCUCGGGUGCCAA; value = 0.217
Oligonucleotide = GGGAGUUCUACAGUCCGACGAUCAUCCAUAAACUAAGAGAAACUGUGUAUAGCUUACCUGAACAGGAAUCCUUACUGAUAUUUAUAGAACAGUUGAUUUCCCCCAUCCCCAGUUUAUGGAUAUGCUGCUUUAAUGGAAUUCUCGGGUGCCAA; value = 0.463
Oligonucleotide = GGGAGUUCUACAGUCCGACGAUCGAUUAGCUGUAAACAGUUUUCGAUAUUUUGGAUAUGGCCAAAAGUCUUUUGAAUCUAAAAUCUUGGAAGAAACCAAAUUUUUCAAUGAUGCUAUUGAAACAUACAAAGGUUGGAAUUCUCGGGUGCCAA; value = 0.345
Oligonucleotide = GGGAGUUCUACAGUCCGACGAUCUUAAUGGGUGAGGAUUGCUUUCUCCAUUAGAGCAUUAAGCUAUAACUAUCAACAUUGUAAACCAAAUUGCCUUAUUUUCCUUCCAAACUUCAUAUAUCUAUCAGGUAAUAUGGAAUUCUCGGGUGCCAA; value = 0.886
Oligonucleotide = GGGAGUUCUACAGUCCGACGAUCCUUCUCUUUUCUUUCCACAAGGGACAAGAGCUUGGCUUAUUUAGGCUACAGCCCUGCUGCUGCUCCCUUCCUUCUUCUGUCCUGUUUCCAGCCUUGCAAGAAGGCUAUUCUGGAAUUCUCGGGUGCCAA; value = 0.806
Oligonucleotide = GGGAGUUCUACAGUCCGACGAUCUGUUCCAGCCUUCAUCCUUCCUGGCUGUUGCUUUUCCUCUUAAGGGCCUCAGAACUCUUGCUCUUCCUGGGCUGAGGGGGAAUGAGUGUUCUUGCCAUUUGCCAGCCUAAUGGAAUUCUCGGGUGCCAA; value = 0.543
Oligonucleotide = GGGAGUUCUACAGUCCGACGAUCAAUCAAAGAUGAUACAAUAUUUCCCUCACUUCUGUUUUGCUGGCCUUAACUGGUAUCAAACAGUGUCACUGAGAUAUUUUCAAAGAACACUGAAUUGUAUUUAAUCAGCGUGGAAUUCUCGGGUGCCAA; value = 0.268
Oligonucleotide = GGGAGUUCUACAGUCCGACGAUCUUUUCUCCAGAGAGUCCUUGGGGUGAGCCUUGGGGCACAGGUACACUCAGAGGUCUGAGAGCCUACCAUGUGGAACAGUGUAAGCAGAAAGGCCAUCUUCCCACUGUCCUUGGAAUUCUCGGGUGCCAA; value = 0.403
Oligonucleotide = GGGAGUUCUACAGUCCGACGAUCCUUAAAUAUAAGACAACAGGAAAUUUAUAUAGGAAACAUUUUCAUUCCACUUGUAUAAUUUAAGUCUUAGCUCUUUCAGAUGCAAGAAACUUAUACUAUUAAAAUUGUUGUGGAAUUCUCGGGUGCCAA; value = 0.658
